Experimental data gathered from unrelated publications.
Parts stem from different laboratories: compare values within a part only. Changes are numbered by the printed parent chain.

Series 1
Target: Ras GTPase-activating protein-binding protein 1, full length (G3BP1, Homo sapiens, UniProt Q13283)
UniProt Q13283, sequence (whole entry, looked up): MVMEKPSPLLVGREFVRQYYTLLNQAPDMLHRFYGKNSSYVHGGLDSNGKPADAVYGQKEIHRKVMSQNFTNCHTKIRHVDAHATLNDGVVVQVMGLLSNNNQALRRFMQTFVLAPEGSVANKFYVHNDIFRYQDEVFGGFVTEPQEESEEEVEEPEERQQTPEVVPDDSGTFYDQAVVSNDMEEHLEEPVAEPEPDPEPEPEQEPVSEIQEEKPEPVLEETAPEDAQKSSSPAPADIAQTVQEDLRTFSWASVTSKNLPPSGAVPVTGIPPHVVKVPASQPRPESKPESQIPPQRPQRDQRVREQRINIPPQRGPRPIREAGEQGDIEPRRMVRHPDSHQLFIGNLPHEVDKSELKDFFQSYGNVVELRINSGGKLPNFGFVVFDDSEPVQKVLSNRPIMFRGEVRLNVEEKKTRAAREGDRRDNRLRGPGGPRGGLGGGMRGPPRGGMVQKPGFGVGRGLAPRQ
Method: RNA Bind-n-Seq
Form: RNA
Medium: in vitro
Concentration: 200 nM
Notes: whole 134-nt RNA, ends assumed
With: 150 mM KCl
Baseline: input library
Direction: higher = stronger binding
Measurement: log2 enrichment
Shared flanks, not repeated: GGGAGUUCUACAGUCCGACGAUC … UGGAAUUCUCGGGUGUCAAGG
Sequence = AGUCCUGUGCUACACAUCGUAUGUACCGAAUCGGGAAAAAGGGAAAAAGGAAAAAGGAAAGUAUUAUGUUACGCCGUUCGGAUCUGCACU; value = -0.901
Sequence = CUCAAGUCCUGUGCUACACAUCGUAUGUACCGAAUCGGGGAAGGAAGGGAAGGAAAGUAUUAUGUUACGCCGUUCGGAUCUGCACUUCCA; value = -0.11
Sequence = GCAGGAAGUAAAAACAAAUGGAAAUGCUUCGGAUAGUGGCAGGGGUGGGCGUUGCUAAGGAAAGGGUGGGAUGGGAGUGGGUAAAGAGUU; value = 0.798
Sequence = GCAGGAAGUAAAAACAAAUGGAAAUGCUUCGGAUAGUGGCAGGGGUGGGGGUUGCUAAGGAAAGGGUGGGAUGGGAGGGGGUAAAGAGUU; value = 0.951
Sequence = UUGCCACUCUAAAUUCAGAAGAGGAGAGCGACCCUCCAACCUACAAGGAUGCCUUCCCUCCACUUCCUGAGAAAGCUGCUUGCCUGGAAA; value = 0.124
Sequence = CAAGUCCUGUGCUACACAUCGUAUGUACCGAAUCGGGAGGGUUUUUUUGGGAGGGAAAGUAUUAUGUUACGCCGUUCGGAUCUGCACUUC; value = 0.385
Sequence = GUCCUGUGCUACACAUCGUAUGUACCGAAUCGGGGAAAAAGGGGUUUGGGGAAAGGGGAAAGUAUUAUGUUACGCCGUUCGGAUCUGCAC; value = 0.6

Series 2
Target: CCNE1, cyclin fold, Cln2 fusion (human)
Method: yeast growth competition, sequencing
Medium: yeast
Notes: strong parent motif
Baseline: not given
Direction: higher = stronger binding
Measurement: normalised enrichment score
Parent: RBL1 docking peptide (human); GSAKRRLFGEDPP; partner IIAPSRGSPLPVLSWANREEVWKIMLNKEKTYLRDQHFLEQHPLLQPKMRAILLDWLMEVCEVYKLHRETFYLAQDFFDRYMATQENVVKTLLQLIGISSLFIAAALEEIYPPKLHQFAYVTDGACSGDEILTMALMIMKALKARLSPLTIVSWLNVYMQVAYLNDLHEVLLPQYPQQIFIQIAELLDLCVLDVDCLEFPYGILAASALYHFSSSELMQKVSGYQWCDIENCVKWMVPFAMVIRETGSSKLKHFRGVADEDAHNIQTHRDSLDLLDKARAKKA
Change = G9P; value = 6.46
Change = D11M; value = 4.31
Change = K4L; value = 0.465
Change = E10F; value = 4.63
Change = K4N; value = 1.81
Change = G9R; value = 6.97
Change = S2G; value = 6.21
Change = F8D; value = 0.616

Series 3
Target: Sal-like protein 4, full length isoform A (SALL4, Homo sapiens, UniProt Q9UJQ4, residues 1-1053)
UniProt Q9UJQ4, sequence (whole entry, looked up): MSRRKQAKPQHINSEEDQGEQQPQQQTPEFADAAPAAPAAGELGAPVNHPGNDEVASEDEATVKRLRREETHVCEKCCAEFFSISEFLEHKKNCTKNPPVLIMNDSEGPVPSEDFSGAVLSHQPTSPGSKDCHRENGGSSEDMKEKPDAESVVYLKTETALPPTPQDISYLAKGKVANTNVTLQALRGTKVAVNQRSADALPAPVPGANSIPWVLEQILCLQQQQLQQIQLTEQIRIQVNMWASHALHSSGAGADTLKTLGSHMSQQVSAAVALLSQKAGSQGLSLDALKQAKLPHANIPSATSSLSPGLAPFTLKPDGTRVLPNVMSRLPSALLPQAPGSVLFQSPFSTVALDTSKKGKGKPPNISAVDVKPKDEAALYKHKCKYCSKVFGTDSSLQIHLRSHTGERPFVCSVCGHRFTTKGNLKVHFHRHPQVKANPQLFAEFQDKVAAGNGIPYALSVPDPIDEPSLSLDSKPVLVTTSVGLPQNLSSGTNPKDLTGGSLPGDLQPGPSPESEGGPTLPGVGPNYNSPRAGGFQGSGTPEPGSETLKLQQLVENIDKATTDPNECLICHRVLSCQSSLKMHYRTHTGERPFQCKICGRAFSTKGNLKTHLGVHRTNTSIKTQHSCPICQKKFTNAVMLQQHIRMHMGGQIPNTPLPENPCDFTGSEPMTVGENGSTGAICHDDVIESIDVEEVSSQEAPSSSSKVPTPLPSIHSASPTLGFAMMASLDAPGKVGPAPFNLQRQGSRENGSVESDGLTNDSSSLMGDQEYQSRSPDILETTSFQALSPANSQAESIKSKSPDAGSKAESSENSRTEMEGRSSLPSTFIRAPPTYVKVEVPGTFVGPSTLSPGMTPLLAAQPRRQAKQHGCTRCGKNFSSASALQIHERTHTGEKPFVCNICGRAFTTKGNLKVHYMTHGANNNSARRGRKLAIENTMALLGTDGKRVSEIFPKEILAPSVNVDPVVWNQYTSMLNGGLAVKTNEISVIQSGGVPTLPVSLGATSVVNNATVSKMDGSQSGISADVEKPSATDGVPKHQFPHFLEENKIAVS
Method: universal PBM
Form: double-stranded DNA, one strand shown
Medium: in vitro
Concentration: 600 nM
Notes: 8-mer, flanks averaged, mean of replicates
Direction: higher = stronger binding
Measurement: E-score
Sequence = AAAGCGTA; value = 0.031
Sequence = ACGCGGTC; value = -0.214
Sequence = TAAAGGCA; value = 0.125
Sequence = CCGGACGG; value = -0.308
Sequence = ATGCGCAT; value = 0.253

Further values, each from its own experiment
Substance = PhoQ, residues 284 288 289 292 302 303 SSTLLI; target = PhoP, residues 12 14 15 18 19 HLGGL (Escherichia coli, UniProt P23836); test = Sort-seq, refers to: YFP reporter; system = E. coli; setting = PhoQ-PhoP variant library, with: 10 µM Mg2+; how to read = baseline: high Mg2+ state, higher = stronger signaling; measurement = fold induction; value = 1.1

Excerpt of the above (series 3):
Sequence = ACGCGGTC; value = -0.214
Sequence = TAAAGGCA; value = 0.125
Sequence = ATGCGCAT; value = 0.253
